Published values from different studies.
A part holds a random share of what one study measured. Substitutions count along the parent as printed.

Block 1
Target: Interferon regulatory factor 7, full length, phosphomimetic (IRF7, Homo sapiens, UniProt Q92985, residues 1-503, S471D/S472D/S475D/S476D/S477D/S483D/S484D/S487D)
Technique: protein-binding microarray
Molecule type: double-stranded DNA, one strand shown
Medium: in vitro
Tested at: 2200 nM top
Setting: 60-bp whole probe
With: salmon DNA 0.4 mg/ml
Relative to: random background probes
Direction: higher = stronger binding
Shared flanks, not repeated: GCCTAGCAC … GTCTTGATTCGCTTGACGCTGCTG
Construct (chain): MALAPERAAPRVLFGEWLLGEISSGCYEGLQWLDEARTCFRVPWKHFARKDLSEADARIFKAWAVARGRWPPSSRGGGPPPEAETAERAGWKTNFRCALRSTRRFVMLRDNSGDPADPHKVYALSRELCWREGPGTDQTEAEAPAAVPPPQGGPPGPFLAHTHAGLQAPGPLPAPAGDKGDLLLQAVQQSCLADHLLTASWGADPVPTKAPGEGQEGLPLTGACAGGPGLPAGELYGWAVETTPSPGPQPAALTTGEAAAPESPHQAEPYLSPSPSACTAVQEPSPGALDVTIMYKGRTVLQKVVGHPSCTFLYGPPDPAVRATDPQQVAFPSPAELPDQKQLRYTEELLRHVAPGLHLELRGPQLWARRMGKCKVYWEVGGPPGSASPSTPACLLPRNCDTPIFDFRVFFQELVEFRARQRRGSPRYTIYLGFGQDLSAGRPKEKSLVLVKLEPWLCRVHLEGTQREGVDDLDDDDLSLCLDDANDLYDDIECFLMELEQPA
| Strand | fitted relative affinity [z-score] |
| --- | --- |
| TCACTTTTTAAGATCTGACTGTGCTAG | 0.849 |
| TCATGCTTGTGTCTGGGACTGTGCTAG | 0.547 |
| TCATATTTAAGGCATCTGACTGTGCTA | -0.188 |
| GACGGACGGGGGACTGGGGACGTGCTA | 0.134 |
| CTGACATGTAAATGTGACATGTGCTAG | 0.294 |
| TTAGGTATCGGGACTGGGTGAGTGCTA | -0.456 |
| TCAACTTTAAATTAGACACTGTGCTAG | -0.456 |
| CATACAATTTCAGATTCCAGTGTGCTA | 1.43 |
| CACGGTTCCCTTTTCCTGACGTGCTAG | 2.62 |
| TTAGATATCGGGTTTCGATCAGTGCTA | 1.8 |
| TTAGGACTGCTTTTCCTGTAGTGCTAG | 0.683 |
| TTAGGTTTCGATATCGGTTAGTGCTAG | 6.75 |
| GACGGTATCCTACTGCTGATGTGCTAG | 0.48 |
| TTAGGTCTCCTACTGCTTCAGTGCTAG | 0.617 |
| GGCGATATCAGACTGGAGACGTGCTAG | -0.569 |
| GACGGTATCTTTTTCCTGACGTGCTAG | 0.962 |
| TTAGGTCTCCTTACCCTTTAGTGCTAG | 0.783 |
| TTAGATCTCAGTTTCTATTAGTGCTAG | 2.23 |
| TTAGAACTGCGGTATCGATTAGTGCTA | -0.136 |
| TTAGGTCTCGGTTTAGGTTAGTGCTAG | 2.32 |
| GAACATACTGATTTCCACTTGTGCTAG | 1.58 |
| TGCTTTCCAATTCTCTTTTCGTGCTAG | 5.21 |
| TTAGAACTGGGCTATCGATTAGTGCTA | -0.815 |

Block 2
Target: Histone acetyltransferase KAT6A, winged helix 2, GST fusion (KAT6A, Homo sapiens, UniProt Q92794, residues 85-181)
Technique: protein binding microarray
Molecule type: double-stranded DNA, one strand shown
Medium: in vitro
Tested at: not given
Setting: 8-mer, flanks averaged, mean of 2 arrays, mostly near background
Relative to: not given
Direction: higher = stronger binding
Target sequence (chain): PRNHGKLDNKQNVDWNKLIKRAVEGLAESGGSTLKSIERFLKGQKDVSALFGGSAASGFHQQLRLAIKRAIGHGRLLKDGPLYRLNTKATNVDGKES
| Strand | E-score |
| --- | --- |
| CAAGCGCG | 0.115 |
| TCCCAAAA | 0.0817 |
| CACCCAAG | 0.145 |
| CCGAATAG | -0.0482 |
| CTTGAGGA | -0.0168 |
| GCGGAGCA | 0.045 |
| AAACTTCG | -0.0037 |
| CCCTGATC | -0.0117 |
| AATTTATG | 0.0445 |
| ACCGGCCG | 0.246 |
| CCGGTGGA | -0.0128 |
| CGCGAATC | 0.0649 |
| CCCGAGAG | 0.107 |
| ATAGCGGA | -0.0832 |
| CTGGTTCC | 0.063 |
| ATGCGGTG | 0.0475 |
| AGATAGGA | -0.039 |
| AGCTGTTA | -0.143 |
| AACGATGG | -0.18 |
| AGTGGGCA | -0.0094 |
| GGTGGGAA | 0.0881 |
| ATCCATTA | -0.104 |
| CAGTTATA | -0.091 |
| ACCCTCGA | -0.161 |
| ACTATATC | -0.159 |

Block 3
Target: Sal-like protein 4, full length isoform B (SALL4, Homo sapiens, UniProt Q9UJQ4-2, residues 1-616)
Technique: universal PBM
Molecule type: double-stranded DNA, one strand shown
Medium: in vitro
Tested at: not given
Setting: 8-mer, flanks averaged, mean of replicates
Direction: higher = stronger binding
| Strand | E-score |
| --- | --- |
| ACATAACC | 0.161 |
| CTAAGGGC | -0.191 |
| ATGCTTTC | 0.15 |
| GAGGTTGA | 0.0641 |
| CTCCGACA | -0.122 |
| CGGTAGAA | -0.214 |
| ACATAGAC | 0.147 |
| CCTCGATC | -0.132 |
| GGCCCGCA | -0.194 |
| GATAACAC | 0.0984 |
| AGTTCCAA | -0.00036 |
| GAAACTTA | 0.274 |
| CTAATGAG | -0.0383 |
| ACGATGTC | -0.142 |
| ACTGCAGG | -0.19 |
| GCTTATCA | 0.0398 |
| ATGCTTTA | 0.138 |
| CTATGAGC | 0.0889 |

Block 4
Target: CCNB2, cyclin fold, Cln2 fusion (human)
Technique: yeast growth competition, sequencing
Medium: yeast
Setting: weak parent motif
Relative to: not given
Direction: higher = stronger binding
Starting sequence: RBL1 docking peptide (human); GSAKRRLFGEDPP; partner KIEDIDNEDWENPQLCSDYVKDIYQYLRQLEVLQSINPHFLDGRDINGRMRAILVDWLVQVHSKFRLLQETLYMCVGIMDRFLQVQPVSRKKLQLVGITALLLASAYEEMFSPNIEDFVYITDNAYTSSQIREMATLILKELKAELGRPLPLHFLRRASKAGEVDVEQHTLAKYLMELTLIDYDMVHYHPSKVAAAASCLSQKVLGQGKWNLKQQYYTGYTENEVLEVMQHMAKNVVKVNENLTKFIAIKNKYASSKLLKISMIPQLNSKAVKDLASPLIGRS
| Substitution | normalised enrichment score |
| --- | --- |
| CSAKRRLFGEDPP [G1C] | 0.239 |
| GSAKRRLFSEDPP [G9S] | 0.521 |
| GSAKRRLFGLDPP [E10L] | 0.482 |
| GLAKRRLFGEDPP [S2L] | -0.076 |
| GSYKRRLFGEDPP [A3Y] | 0.284 |
| SSAKRRLFGEDPP [G1S] | 0.176 |
| GSAKRRRFGEDPP [L7R] | 0.245 |
| GSAKRRLFCEDPP [G9C] | 0.561 |
| GSAKRRAFGEDPP [L7A] | -0.13 |
| GSAKRRLFKEDPP [G9K] | 0.455 |
| GSAKRRLFTEDPP [G9T] | 0.391 |
| GSAKRSLFGEDPP [R6S] | 0.18 |
| GSAKRRLFGEDQP [P12Q] | 0.0135 |
| GSAKRRYFGEDPP [L7Y] | 0.0102 |
| GSAKRRLMGEDPP [F8M] | 0.13 |
| GSAKRRLFGEAPP [D11A] | 0.417 |
| GSAKRRLFGADPP [E10A] | 0.403 |
| GSANRRLFGEDPP [K4N] | -0.185 |
| GSAKRRLFGWDPP [E10W] | 0.0233 |
| GSAKRRLRGEDPP [F8R] | 0.308 |
| NSAKRRLFGEDPP [G1N] | -0.302 |
| GSIKRRLFGEDPP [A3I] | 0.042 |
| GSAKRRLFYEDPP [G9Y] | -0.067 |
| GSAKRRLFGEFPP [D11F] | 0.186 |
| GSAKRRNFGEDPP [L7N] | 0.329 |

Block 5
Target: RNA binding protein fox-1 homolog 2, RRM domain, GST-SBP tag (RBFOX2, Homo sapiens, UniProt O43251-10, residues 100-194)
Technique: RNA Bind-n-Seq
Molecule type: RNA
Medium: in vitro
Tested at: 365 nM
Setting: natural RNA segment, single round, ends assumed
Relative to: no-protein control
Direction: higher = stronger binding
Construct (chain): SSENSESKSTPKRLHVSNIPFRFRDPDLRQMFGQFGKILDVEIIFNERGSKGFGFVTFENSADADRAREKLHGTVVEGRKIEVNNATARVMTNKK
| Strand | RBNS enrichment (R) |
| --- | --- |
| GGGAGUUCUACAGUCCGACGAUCGUGUAAAUGUACAUUGUAUAGGUAUUAGUGUGCUCUAGAAAGGACAGGAUGGAAGGAAUCAAAGCACUUUAUCGAGCUUGUGGCUGAGCAUUGCAGCCUAUGUGCAAACCUGGAAUUCUCGGGUGCCAA | 2.24 |
| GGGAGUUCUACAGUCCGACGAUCAGCAGUGGAGAUGAAAUCAAGACCUUGCAAAAUGGAUACUAGGAGAUGAACAACAAUUCAACGUGCUUCUCUCAGUGCCUGGAGGAUGCAGCUCUCCACACGCAGGGACUUGGAAUUCUCGGGUGCCAA | 0.348 |
| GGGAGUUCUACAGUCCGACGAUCAAUUCAGAGGCUACAGUAUAUCUACAUUCAUGUGGUGUUCAUUGGUAAUUUCAGUAUAUGUAAUGUGAUUUUAGACUGUGAAAUUUUAUCUCACAUUAAUAUCUGAAGUGUGGAAUUCUCGGGUGCCAA | 0.28 |
| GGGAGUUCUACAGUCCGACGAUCCUGUUCCCAGGAUCACGAGAAACAAGCUCUCCUGAGCUGCUAGAACCCUGCCUGACCUCCUUUGCAGUCAUCAUCUGUCUUUUCUUGGCGUGGGUGCUCACCUCACUUAUUGGAAUUCUCGGGUGCCAA | 0.553 |
| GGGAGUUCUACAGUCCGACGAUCGUUCCAAGGGUCCCCAGUGCUUCCCAUUCAGCAUCCCCAGGGAGCCCCCAAAGGUACUGAAAAGUCUCUGAUGCUCCUACUCCUGGAAAGAAGUCUGGGAAGCCCCUUUCUGGAAUUCUCGGGUGCCAA | 0.32 |
| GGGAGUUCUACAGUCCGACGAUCCUUGUGACUUCUUAAGGCUCUGUAUGAAUUUGGAAGUAUAUGUUGAUAUUGCCAUGCAUGGUCAUUCAUACUUCUAAUACCAGCACCUAUAAGGCUGAGGCAGAAGGUUCUGGAAUUCUCGGGUGCCAA | 0.968 |
| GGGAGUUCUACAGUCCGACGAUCUAAAUUUUCCUAGCUGUAAGCUUAAGUCUCCUUUGUAUCCCUCUGUUGGUGGGGAAAGGUGUCUUUCUUUCUGCCCCUUCCCCUUAAAUAAUUGUGUUCAUUUUUGUUUUUGGAAUUCUCGGGUGCCAA | 1.34 |
| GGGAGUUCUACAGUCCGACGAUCGACAUGAGAUCAGGGCCUGCCCCCUGGGGAUCACAGCCUCACCCCUGCCCCUGUGGGACUCAUCCUUGCCCAGGUGAGGGAAGGAGACAGGAUGAGGUCUCGACCCUGUCUGGAAUUCUCGGGUGCCAA | 0.403 |
| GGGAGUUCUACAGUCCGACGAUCGAUGAGUAAUUAUAAGUAACUGUAAUCGGUAGGGAGACAUGUUUUAACCUGGAUAUGUUAGAAAAGUAUCACGUGCCACCUGGGAAGAAGUUCUUUUCUGGCAACUGUCAUGGAAUUCUCGGGUGCCAA | 0.368 |
| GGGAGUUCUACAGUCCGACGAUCUUCCUGUCACAACUGUAAACAAACUUAUCCUAAAUGUGUUAAAACAUAUUCUUGGGUACUCUAUUUAUGUAUCUUUCAUGCCUUGAAAAUCUGAAGGUUAAUCCAAACUCUGGAAUUCUCGGGUGCCAA | 0.416 |
| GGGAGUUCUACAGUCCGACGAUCCCCACCGCCCUCCCUGGAUAGGAUUUGGGCAGGGUUUCAGUCUCCACUGAUUGCCGCCUUGUUCUCCCUGACUGAUUGCUGCCUUGCUGGCUAGCCCAAGGGCCCUGCCAUGGAAUUCUCGGGUGCCAA | 7.74 |
| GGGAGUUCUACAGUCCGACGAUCGAGCCCGGCGCCCCUGCCACCUCCCUGACCCGUCUAAUAUAUAAAUAUAGAGAUGUGUCUAUGGCUGCCCUGGCUCUGUCUGUGUUCGCGACGCCCCCGCCCUGCCCCGUUGGAAUUCUCGGGUGCCAA | 0.492 |

Excerpt of the above (block 2):
| Strand | E-score |
| --- | --- |
| GGTGGGAA | 0.0881 |
| AATTTATG | 0.0445 |
| CGCGAATC | 0.0649 |
| CAGTTATA | -0.091 |
| CTGGTTCC | 0.063 |
| ATCCATTA | -0.104 |
| AGCTGTTA | -0.143 |
| ATGCGGTG | 0.0475 |
| CCCTGATC | -0.0117 |
